Assay results collected from several papers.
Each numbered part is a random draw from the data of one study; scales do not carry over between parts. “And” joins repeats or separate records; there may be more than shown. In brackets after ≈: the same amount, converted by molar mass.

Block 1
SMILES: N=C(N)NCCCCCCN1CCC23c4c5ccc(O)c4OC2c2nc4ccccc4cc2CC3(O)C1C5 (stereo not drawn)
Method: modified Racine scale
Host: C57BL/6J mice, male
Route: intracerebroventricular
Dose: 100 nmol
Reading: direction not given
setting | seizure score
45 min | 0
60 min | 0
50 min | 0

Single results of other studies
SMILES | target or system | assay | test system | setting | endpoint | result
CCCCC[C@@H]1CC(=O)N[C@@H](C(C)C)C(=O)N[C@H](CCC(=O)O)C(=O)N[C@@H](CCCNC(=N)N)C(=O)NCC(=O)N2CCC[C@H]2C(=O)N[C@@H](CC(C)C)C(=O)N[C@H](CCC(N)=O)C(=O)N[C@@H](CCC(=O)O)C(=O)N[C@H](Cc2ccc(O)cc2)C(=O)N[C@H](Cc2c[nH]c3ccccc23)C(=O)NCCCC(=O)O1 | Staphylococcus aureus |  | USA300 | together with: menaquinone 8 µg/mL | MIC | 64 µg/mL (≈ 43.1 µM)
C=CCN1C(=O)C(O)(C(=O)O)Oc2cc(F)ccc21 (stereo not drawn) | Arabidopsis thaliana |  | Col-0 | 12.5 µg/mL, seed germination, repetition mean | hypocotyl length | 1.82 cm
Cc1c(NC(=O)c2cccn(-c3ccc(F)cc3)c2=O)ccc(Oc2ccnc(NC(=O)C3CC3)c2)c1C | L929 | CCK-8 |  | 50 µM | viability | 71.4% and 71.9% and 70.7% and 71.7%
Cn1cc(-c2cccc(CN3CCC4(CC3)COc3c4ccc4c3CN([C@H]3CCC(=O)NC3=O)C4=O)c2)cn1 | human Treg:Teff co-culture |  |  | concentration not given, Treg suppression | proliferating CD8+ Teff cells | 42.7% and 71% and 84.4% and 89.7% and 56.3% and 43.9% and 71.3%
CCCCC[C@@H](O)CC(=O)N[C@H]1COC(=O)[C@H](CO)NC(=O)[C@H](Cc2ccccc2)NC(=O)[C@@H](Cc2c[nH]c3ccccc23)NC(=O)[C@@H](C(C)O)NC(=O)[C@H](CC(N)=O)NC(=O)[C@@H](C(C)C)NC(=O)[C@H](CC(C)C)NC(=O)[C@@H](Cc2ccc(O)cc2)N(C)C(=O)CNC(=O)[C@H](CO)NC(=O)[C@@H](CC(N)=O)NC1=O (stereo partly drawn) | Staphylococcus aureus |  | USA300 | together with: menaquinone 0 µg/mL | MIC | 4 µg/mL (≈ 2.64 µM)
Cc1cc(-c2cnc(N)c3c(-c4ccc5scnc5c4)csc23)n(C)n1 | L929 | necroptosis protection, CCK-8 |  | 5 µM, together with: TNF-α-induced | viability | 75.4%

For quick reference, copied from above (single results of other studies):
SMILES | target or system | assay | test system | setting | endpoint | result
CCCCC[C@@H]1CC(=O)N[C@@H](C(C)C)C(=O)N[C@H](CCC(=O)O)C(=O)N[C@@H](CCCNC(=N)N)C(=O)NCC(=O)N2CCC[C@H]2C(=O)N[C@@H](CC(C)C)C(=O)N[C@H](CCC(N)=O)C(=O)N[C@@H](CCC(=O)O)C(=O)N[C@H](Cc2ccc(O)cc2)C(=O)N[C@H](Cc2c[nH]c3ccccc23)C(=O)NCCCC(=O)O1 | Staphylococcus aureus |  | USA300 | together with: menaquinone 8 µg/mL | MIC | 64 µg/mL (≈ 43.1 µM)
